{"data": "Experimental data gathered from unrelated publications", "note": "Lines come from different studies, so protocols differ. ± gives the spread as reported."}
{"Compound": "CCn1ncc2c1-c1cnc(N)c(c1)O[C@H](C)c1cc(F)ccc1-c1nn(C)nc1C2", "cell line": "NCI-H1975, EGFR L858R/T790M", "assay": "cell viability", "IC50": "> 10 µM"}
{"Compound": "CS(=O)(=O)CCNCc1ccc(-c2ccc3ncnc(Nc4ccc(OCc5cccc(F)c5)c(Cl)c4)c3c2)o1", "cell line": "Ba/F3 expressing HER2 wild type", "assay": "cell growth, inhibitor, CellTiter-Glo", "IC50": "0.155 µM"}
{"Compound": "CSCC[C@H](NC(=O)[C@H](CCCCN)NC(=O)[C@H](CCCNC(=N)N)NC(=O)[C@H](CO)NC(=O)[C@H](Cc1c[nH]c2ccccc12)NC(=O)[C@H](CCCNC(=N)N)NC(=O)[C@H](CC(C)C)NC(=O)[C@H](CO)NC(C)=O)C(=O)N1CCC[C@H]1C(=O)N[C@@H](CS)C(=O)N[C@H](C(=O)N[C@@H](CO)C(N)=O)C(C)C", "cell line": "SUP-T1", "assay": "Erk phosphorylation, inhibitor, phospho flow cytometry", "conditions": "with: CXCL12 100 ng/mL", "IC50": "> 100 µM"}
{"Compound": "Oc1ccc2c3c(cnc2c1)-c1ccc(C(F)(F)F)cc1O[C@@H]3c1ccc(OCCN2CC(CF)C2)cc1", "cell line": "ER-negative breast cancer cells", "assay": "cell growth", "conditions": "two doubling times", "IC50": "> 2 µM"}
{"Compound": "COc1cc(F)ccc1-c1cc(Nc2cc(CS(C)(=N)=O)ccn2)ncc1F (centres unmarked)", "cell line": "patient-derived organoid sample B", "assay": "organoid viability", "system": "human", "conditions": "96 h", "IC50": "0.186 µM"}
{"Compound": "CC[C@@H](C)[C@@H](NC(C)=O)C(=O)N[C@@H](CC(C)C)C(=O)N[C@@H](CCCNC(=N)N)C(=O)N[C@@H](Cc1c[nH]c2ccccc12)C(=O)N[C@@H](CO)C(=O)N[C@@H](CCCNC(=N)N)C(=O)N[C@@H](CCCCN)C(=O)N[C@@H](CC(C)C)C(=O)N1CCC[C@H]1C(=O)N[C@@H](CS)C(=O)N[C@H](C(=O)N[C@@H](CO)C(N)=O)C(C)C", "cell line": "SUP-T1", "assay": "Erk phosphorylation, inhibitor, phospho flow cytometry", "conditions": "with: CXCL12 100 ng/mL", "IC50": "17.2 ± 4.86 µM"}
{"Compound": "O=C(O)COCC(=O)O", "cell line": "iPSC-derived hepatocytes B2", "assay": "cell viability", "conditions": "48 h, differentiation day 23", "IC50": "10100 µM"}
{"Compound": "CCCCC(CC)COC(=O)c1ccc(O)cc1 (centres unmarked)", "cell line": "AC16 cardiomyocytes", "assay": "mitochondrial membrane potential decrease", "conditions": "1 h", "IC50": "11.6 ± 0.76 µM"}
{"Compound": "C[C@H](Nc1ccc2c(c1)OCCn1cc(N3C(=O)OC[C@H]3C(F)F)nc1-2)C(N)=O", "cell line": "BFTC-909", "assay": "growth rate inhibition, CellTiter-Glo", "conditions": "120 h", "IC50": "10 µM"}
{"Compound": "COc1ccc2c(c1)NC(=O)CN2c1nc(C)nc2c1CCC2", "cell line": "PDX-derived, HCI-10-Luc2, taxane refractory", "assay": "cell growth, MTS", "IC50": "0.001 to 0.004 µM"}
{"Compound": "C=CC(=O)NC1CCN(c2ncc3ncnc(Nc4ccc(Oc5ccc6c(c5)ncn6C)c(C)c4)c3n2)CC1", "cell line": "Ba/F3 expressing HER2 wild type", "assay": "cell growth, inhibitor, CellTiter-Glo", "IC50": "0.0031 µM"}
{"Compound": "COc1cc(NCC(=O)Nn2c(C)nc3ccc(Cl)cc3c2=O)cc(OC)c1OC", "cell line": "LoVo", "assay": "cytotoxicity, LDH release", "conditions": "24 h, 50% viability reduction", "IC50": "608 ± 13.1 µM"}
{"Compound": "C[C@H]1[C@H](OC(=O)CCC(=O)O)O[C@@H]2O[C@@]3(C)CC[C@H]4[C@H](C)CC[C@@H]1[C@@]24OO3", "cell line": "primary AML blasts, MLL-rearranged", "assay": "cell viability", "conditions": "96 h, MSC co-culture, range over samples", "IC50": "3.2 to 46.7 µM"}
{"Compound": "COc1cc(C#N)c(Oc2ccccc2C)cc1-n1c(=O)cc(-c2ccc(C(F)(F)F)cc2)[nH]c1=O", "cell line": "U-87 MG", "IC50": "~30 µM"}
{"Compound": "C=CC(=O)N1CCC(COCC(=O)N2CCN(c3nc(-c4cnc(N)nc4C(F)F)nc(N4CCOC[C@@H]4C)n3)CC2)CC1", "cell line": "PC-3", "assay": "western blot, item: phospho-PKB/Akt Ser473", "conditions": "2 h", "IC50": "0.0974 µM"}
{"Compound": "Cc1c(C(=O)O)ccc2c3n(nc12)[C@@H]1[C@H](C3)N(CC2CC2)[C@@]2(C(=O)Nc3cc(Cl)ccc32)[C@H]1c1cccc(Cl)c1F", "cell line": "Rh18 (MDM2-amplified)", "assay": "cell growth, alamarBlue", "conditions": "120 h", "IC50": "0.01 µM"}
{"Compound": "Cc1c(C)c2c(c(C)c1O)CCC(C)(COc1ccc(CC3SC(=O)NC3=O)cc1)O2 (centres unmarked)", "cell line": "iPSC-derived hepatocytes B2", "assay": "cell viability", "conditions": "24 h, differentiation day 23", "IC50": "27 µM"}
{"Compound": "CSCC[C@H](NC(=O)[C@H](CCCCN)NC(=O)[C@H](CCCNC(=N)N)NC(=O)[C@H](CO)NC(=O)[C@H](Cc1c[nH]c2ccccc12)NC(=O)[C@H](CCCNC(=N)N)NC(=O)[C@H](CC(C)C)NC(=O)[C@H](N)Cc1ccccc1)C(=O)N1CCC[C@H]1C(=O)N[C@@H](CS)C(=O)N[C@H](C(=O)N[C@@H](CO)C(N)=O)C(C)C", "cell line": "SUP-T1", "assay": "Erk phosphorylation, inhibitor, phospho flow cytometry", "conditions": "with: CXCL12 100 ng/mL", "IC50": "> 100 µM"}
{"Compound": "CC(=O)O[C@H]1C(=O)[C@@]2(C)[C@H]([C@H](OC(=O)c3ccccc3)[C@]3(O)C[C@H](OC(=O)[C@H](O)[C@@H](NC(=O)c4ccccc4)c4ccccc4)C(C)=C1C3(C)C)[C@]1(OC(C)=O)CO[C@@H]1C[C@@H]2O", "cell line": "PC-3/TxR, resistant to compound", "assay": "cell proliferation, MTS", "conditions": "72 h", "IC50": "0.155 ± 0.0181 µM"}
{"Compound": "COc1ccc(F)cc1C(=O)NCc1ccc(-c2nn([C@@H](C)C(F)(F)F)c(N)c2C(N)=O)cc1", "cell line": "Rec1", "assay": "item: IL-8", "conditions": "24 h", "IC50": "0.0045 ± 0.0016 µM"}
{"Compound": "C=CC(=O)Nc1cc(Nc2nccc(-c3cn(C)c4ccccc34)n2)c(OC)cc1N(C)CCN(C)C", "cell line": "Ba/F3 EGFR G719S/T263P", "assay": "cell proliferation", "conditions": "72 h", "IC50": "0.0494 ± 0.0035 µM"}
{"Compound": "COc1cccc2c1C(=O)c1c(O)c3c(c(O)c1C2=O)C[C@@](O)(C(=O)CO)C[C@@H]3O[C@H]1C[C@H](N)[C@H](O)[C@H](C)O1", "cell line": "B16-F10", "assay": "cell growth", "conditions": "96 h", "IC50": "0.145 µM"}
{"Compound": "CCCCN1C[C@H](O)[C@@H](O)[C@@H](O)[C@H]1CO", "cell line": "sample BC patient fibroblasts", "assay": "Gb3 level lowering, LC-MS/MS, item: Gb3 d18:1/18:0", "conditions": "216 h", "IC50": "33.1 µM"}
{"Compound": "CCOc1cc2ncc(C#N)c(Nc3ccc(OCc4ccccn4)c(Cl)c3)c2cc1NC(=O)/C=C/CN(C)C", "cell line": "Ba/F3 expressing HER2 wild type", "assay": "cell growth, inhibitor, CellTiter-Glo", "IC50": "0.0006 µM"}
{"Compound": "COc1cccc2c1C(=O)c1c(O)c3c(c(O)c1C2=O)C[C@@](O)(C(=O)CO)C[C@@H]3O[C@H]1C[C@H](N)[C@H](O)[C@H](C)O1", "cell line": "MCF7/ADR", "assay": "cell viability, MTT", "conditions": "24 h", "IC50": "17.6 ± 0.76 µg/mL"}
{"Compound": "COC(=O)CN=c1scc(-c2ccccc2)n1-c1ccc(OC)cc1", "cell line": "Panc 03.27", "assay": "cell viability, MTT", "conditions": "72 h", "IC50": "11.5 µM"}
{"Compound": "CSCC[C@H](NC(=O)[C@H](CCCCN)NC(=O)[C@H](CCCNC(=N)N)NC(=O)[C@H](CO)NC(=O)[C@H](Cc1c[nH]c2ccccc12)NC(=O)[C@H](CCCNC(=N)N)NC(=O)[C@@H](CC(C)C)NC(=O)[C@@H](N)CCSC)C(=O)N1CCC[C@H]1C(=O)N[C@@H](CS)C(=O)N[C@H](C(=O)N[C@@H](CO)C(N)=O)C(C)C", "cell line": "SUP-T1", "assay": "Erk phosphorylation, inhibitor, phospho flow cytometry", "conditions": "with: CXCL12 100 ng/mL", "IC50": "> 100 µM"}
{"Compound": "S=C(S)N1CCCC1", "cell line": "differentiated LUHMES MT1G::HiBiT-G2 neurons", "assay": "cell viability", "system": "3D neurospheres", "conditions": "24 h", "IC50": "0.13 µM"}
{"Compound": "CC(C)C[C@H](NC(=O)[C@@H](NC(=O)[C@@H]1CCCN1C(=O)[C@@H](NC(=O)[C@H](CO)NC(=O)[C@@H](NC(=O)[C@H](CCC(N)=O)NC(=O)[C@@H]1CCCN1C(=O)[C@@H](NC(=O)[C@H](CCCCN)NC(=O)[C@H](CCCCN)NC(=O)[C@@H](NC(=O)[C@H](Cc1ccc(O)cc1)NC(=O)[C@H](CCCNC(=N)N)NC(=O)[C@@H](NC(=O)[C@@H](N)CC(C)C)C(C)C)[C@@H](C)O)C(C)C)C(C)C)[C@@H](C)O)[C@@H](C)O)C(=O)O", "cell line": "SUP-T1", "assay": "Erk phosphorylation, inhibitor, phospho flow cytometry", "conditions": "with: CXCL12 100 ng/mL", "IC50": "> 100 µM"}
{"Compound": "COC(=O)CN=c1scc(-c2ccccc2)n1-c1ccccc1OC", "cell line": "Panc 03.27", "assay": "cell viability, MTT", "conditions": "72 h", "IC50": "13.2 µM"}
{"Compound": "CSCC[C@H](N)C(=O)N[C@H](CC(C)C)C(=O)N[C@@H](CCCNC(=N)N)C(=O)N[C@@H](Cc1c[nH]c2ccccc12)C(=O)N[C@@H](CO)C(=O)N[C@@H](CCCNC(=N)N)C(=O)N[C@@H](CCCCN)C(=O)N[C@@H](CC(C)C)C(=O)N1CCC[C@H]1C(=O)N[C@@H](CS)C(=O)N[C@H](C(=O)N[C@@H](CO)C(N)=O)C(C)C", "cell line": "SUP-T1", "assay": "Erk phosphorylation, inhibitor, phospho flow cytometry", "conditions": "with: CXCL12 100 ng/mL", "IC50": "> 100 µM"}
{"Compound": "COc1ccc2nc(NC(=O)Nc3ccccc3)sc2c1", "cell line": "AC16 cardiomyocytes", "assay": "mitochondrial membrane potential decrease", "conditions": "1 h", "IC50": "1.73 ± 0.12 µM"}
{"Compound": "C=CC(=O)Nc1cc(Nc2nccc(-c3cn(C)c4ccccc34)n2)c(OC)cc1N(C)CCN(C)C", "cell line": "PC-9", "assay": "cell growth", "conditions": "72 h", "IC50": "0.006 ± 0.0024 µM"}
{"Compound": "CSCC[C@H](NC(=O)CN)C(=O)N[C@@H](CCCNC(=N)N)C(=O)N[C@@H](Cc1c[nH]c2ccccc12)C(=O)N[C@@H](CO)C(=O)N[C@@H](CCCNC(=N)N)C(=O)N[C@@H](CCCCN)C(=O)N[C@@H](CCSC)C(=O)N1CCC[C@H]1C(=O)N[C@@H](CS)C(=O)N[C@H](C(=O)N[C@@H](CO)C(N)=O)C(C)C", "cell line": "SUP-T1", "assay": "Erk phosphorylation, inhibitor, phospho flow cytometry", "conditions": "with: CXCL12 100 ng/mL", "IC50": "> 100 µM"}
{"Compound": "COc1cccc2c1C(=O)c1c(O)c3c(c(O)c1C2=O)C[C@@](O)(C(=O)CO)C[C@@H]3O[C@H]1C[C@H](N)[C@H](O)[C@H](C)O1", "cell line": "NCI-H1299", "assay": "cell growth, WST-1", "conditions": "72 h", "IC50": "0.05 µM"}
